Published values gathered from unrelated publications.
Protocols differ between the studies behind these lines.
Organism: Acinetobacter baumannii

| Compound | assay | test system | setting | MIC |
| --- | --- | --- | --- | --- |
| Cc1c(CN(C)C(=O)/C=C/c2cnc3c(c2)CCC(=O)N3)oc2ccccc12 | broth microdilution | W41979 |  | > 32 µg/mL |
| CC1(C)S[C@@H]2[C@H](NC(=O)[C@H](N)c3ccccc3)C(=O)N2[C@H]1C(=O)O | broth microdilution | BNCC 194496 |  | 16 µg/mL |
| N#Cc1ccc2[nH]c(CNCC34CC5CC(CC(C5)C3)C4)nc2c1 |  | ATCC 17961 |  | > 128 µg/mL |
| COc1ccc2ccc(O)c(/C=N/[C@H]3CCCC[C@H]3/N=C/c3ccc(-c4ccccc4)cc3O)c2c1 | bacterial growth, broth microdilution | carbapenem-resistant clinical isolate |  | > 40 µM |
| NC[C@H]1O[C@H](O[C@H]2[C@H](O)[C@@H](O[C@H]3O[C@H](CO)[C@@H](O)[C@H](N)[C@H]3O)[C@H](N)C[C@@H]2N)[C@H](N)C[C@@H]1O | broth microdilution | NCTC 13424 | 20 h, ambient air | > 512 µg/mL |
| CNC(C)C1CCC(N)C(OC2C(N)CC(N)C(OC3OCC(C)(O)C(NC)C3O)C2O)O1 (stereo not drawn) | broth microdilution | ATCC 17978 |  | 0.63 µM |
| C[C@H](N)C(=O)N[C@H](C(=O)N[C@@H](CS)C(=O)N[C@@H](Cc1ccc(O)cc1)C(=O)N[C@@H](CS)C(=O)N[C@@H](CCCNC(=N)N)C(=O)N[C@H](C(=O)NCC(=O)N[C@@H](CCCNC(=N)N)C(=O)N[C@@H](CS)C(=O)N[C@@H](C)C(=O)N[C@H](C(=O)N[C@@H](CCCNC(=N)N)C(=O)O)[C@@H](C)O)[C@@H](C)O)[C@@H](C)O | broth turbidity |  |  | > 100 µM |
| Cc1c(CN(C)C(=O)/C=C/c2cnc3c(c2)CC(NC(=O)OC(C)(C)C)C(=O)N3)oc2ccccc12 (stereo not drawn) | broth microdilution | AR-0288 |  | > 32 µg/mL |
| CC[C@H](C)CCCCC(=O)N[C@@H](CCN)C(=O)N[C@H](C(=O)N[C@@H](CCN)C(=O)N[C@H]1CCNC(=O)[C@H]([C@@H](C)O)NC(=O)[C@H](CCN)NC(=O)[C@H](CCN)NC(=O)[C@H](CC(C)C)NC(=O)[C@@H](CC(C)C)NC(=O)[C@H](CCN)NC1=O)[C@@H](C)O | broth microdilution | BAA-747 |  | 0.107 µM |
| CC1(C)S[C@@H]2[C@H](NC(=O)[C@H](N)c3ccccc3)C(=O)N2[C@H]1C(=O)O | broth microdilution | ATCC 19606, susceptible | 18 h, 37 °C, dark | > 128 µM |
| CCn1cc(C(=O)O)c(=O)c2ccc(C)nc21 | broth microdilution | ATCC 17978 |  | 20 µM |
| NCC[C@H](O)C(=O)N[C@@H]1C[C@H](N)[C@@H](O[C@H]2O[C@H](CN)[C@@H](O)[C@H](O)[C@H]2O)[C@H](O)[C@H]1O[C@H]1O[C@H](CO)[C@@H](O)[C@H](N)[C@H]1O | broth microdilution | NCTC 13424 | 20 h, ambient air | > 512 µg/mL |
| CC[C@H](C)[C@H](NC(=O)[C@H](CCCCN)NC(=O)[C@H](CCC(=O)O)NC(=O)[C@H](CCCCN)NC(=O)[C@H](CO)NC(=O)[C@H](CCCCN)NC(=O)[C@H](CCCNC(=N)N)NC(=O)[C@H](Cc1ccccc1)NC(=O)[C@H](Cc1ccccc1)NC(=O)[C@H](CC(=O)O)NC(=O)CNC(=O)[C@H](CC(C)C)NC(=O)[C@@H](N)CC(C)C)C(=O)NCC(=O)N[C@@H](CCCCN)C(=O)N[C@@H](CCC(=O)O)C(=O)N[C@@H](Cc1ccccc1)C(=O)N[C@@H](CCCCN)C(=O)N[C@@H](CCCNC(=N)N)C(=O)N[C@H](C(=O)N[C@H](C(=O)N[C@@H](CCC(N)=O)C(=O)N[C@@H](CCCNC(=N)N)C(=O)N[C@H](C(=O)N[C@@H](CCCCN)C(=O)N[C@@H](CC(=O)O)C(=O)N[C@@H](Cc1ccccc1)C(=O)N[C@@H](CC(C)C)C(=O)N[C@@H](CCCNC(=N)N)C(=O)N[C@@H](CC(N)=O)C(=O)N[C@@H](CC(C)C)C(=O)N[C@H](C(=O)N1CCC[C@H]1C(=O)N[C@@H](CCCNC(=N)N)C(=O)N[C@H](C(=O)N[C@@H](CCC(=O)O)C(=O)N[C@@H](CO)C(=O)O)[C@@H](C)O)C(C)C)[C@@H](C)CC)C(C)C)[C@@H](C)CC |  | ATCC 19606 | highest concentration 50 µM | 8.35 µM |
| CC[C@H](C)CCCCC(=O)N[C@@H](CCN)C(=O)N[C@H](C(=O)N[C@@H](CCN)C(=O)N[C@H]1CCNC(=O)[C@H]([C@@H](C)O)NC(=O)[C@H](CCN)NC(=O)[C@H](CCN)NC(=O)[C@H](CC(C)C)NC(=O)[C@@H](Cc2ccccc2)NC(=O)[C@H](CCN)NC1=O)[C@@H](C)O |  | ATCC 19606, CAMHB | 20 h, 37 °C | 1 µg/mL |
| C[C@H]1COc2c(N3CCN(C)CC3)c(F)cc3c(=O)c(C(=O)O)cn1c23 | broth microdilution | NCTC 13424 | 20 h, 5% CO2 | 32 µg/mL |

Some of these lines once more:
| Compound | assay | test system | setting | MIC |
| --- | --- | --- | --- | --- |
| NCC[C@H](O)C(=O)N[C@@H]1C[C@H](N)[C@@H](O[C@H]2O[C@H](CN)[C@@H](O)[C@H](O)[C@H]2O)[C@H](O)[C@H]1O[C@H]1O[C@H](CO)[C@@H](O)[C@H](N)[C@H]1O | broth microdilution | NCTC 13424 | 20 h, ambient air | > 512 µg/mL |
| CC1(C)S[C@@H]2[C@H](NC(=O)[C@H](N)c3ccccc3)C(=O)N2[C@H]1C(=O)O | broth microdilution | ATCC 19606, susceptible | 18 h, 37 °C, dark | > 128 µM |
